Assay results of several laboratories.
Each line is one published result; not all experiments were run side by side.

Molecule	target or system	test	system	conditions	how to read	endpoint	value
KYKKSKNGY	Escherichia coli	bacterial survival, plate count	peptide	20 µM, 4 h, room temperature	baseline: untreated control	bacterial killing	15%
SAISFWLSIGLIK	Escherichia coli	bacterial growth, OD600 growth curve	peptide, K12 MG1655, MHB broth	40 µM, 24 h, 37 °C	baseline: no peptide control	relative growth rate	0.404
insulin human		refers to: ADCY1 mRNA	uninfected mouse, brain	i.p., dose not given	baseline: PBS	fold change	1.33
colistin	Escherichia coli	broth microdilution	mcr-1 resistant isolate			MIC	2 µg/mL
KKRRRGLSRFRMGRGY	Escherichia coli	bacterial survival, plate count	peptide	20 µM, 4 h, room temperature	baseline: untreated control	bacterial killing	90.3%
gramicidin D	Escherichia coli		tetracycline-resistant	20 µM, added: tetracycline		FIC index	1
polymyxin B	Escherichia coli		W3110, colistin-sensitive, Mueller-Hinton broth			MIC	0.5 µg/mL
RSKRGNRYQRL	Escherichia coli	bacterial survival, plate count	peptide	20 µM, 4 h, room temperature	baseline: untreated control	bacterial killing	55.1%
ILSAAWSGILSLF	Escherichia coli	bacterial growth, OD600 growth curve	peptide, K12 MG1655, MHB broth	40 µM, 24 h, 37 °C	baseline: no peptide control	relative growth rate	0.0453
Polymyxin B	Escherichia coli	broth microdilution	ATCC 25922	20 h		MIC	2 µg/mL
ILPWMWPWWPWRR	Escherichia coli		peptide, K-12 MG1655, Mueller-Hinton broth	concentration not given, 37 °C, unit not given	baseline: no peptide	growth rate	0.147
Polymyxin B	Escherichia coli		K1 ATCC 700973	16 h, 37 °C, Mueller-Hinton broth		MIC	1 µM
ILPWIWPWWPWRR	Escherichia coli		peptide, K-12 MG1655, Mueller-Hinton broth	concentration not given, 37 °C, unit not given	baseline: no peptide	growth rate	0.645
polymyxin B	Escherichia coli		ATCC BAA-2452, NDM-1			MIC	0.7 µg/mL
ILPWQWPWWPWRR	Escherichia coli		peptide, K-12 MG1655, Mueller-Hinton broth	concentration not given, 37 °C, unit not given	baseline: no peptide	growth rate	0.189
colistin	Escherichia coli		1191008, multidrug-resistant			MIC	0.25 µg/mL

Repeated from above:
Molecule	target or system	test	system	conditions	how to read	endpoint	value
gramicidin D	Escherichia coli		tetracycline-resistant	20 µM, added: tetracycline		FIC index	1
polymyxin B	Escherichia coli		W3110, colistin-sensitive, Mueller-Hinton broth			MIC	0.5 µg/mL
